Published values of several laboratories.
Numbered parts are unrelated; each lists some results of a single study.
Sequence of UniProt Q9Y2U5 (whole entry, looked up): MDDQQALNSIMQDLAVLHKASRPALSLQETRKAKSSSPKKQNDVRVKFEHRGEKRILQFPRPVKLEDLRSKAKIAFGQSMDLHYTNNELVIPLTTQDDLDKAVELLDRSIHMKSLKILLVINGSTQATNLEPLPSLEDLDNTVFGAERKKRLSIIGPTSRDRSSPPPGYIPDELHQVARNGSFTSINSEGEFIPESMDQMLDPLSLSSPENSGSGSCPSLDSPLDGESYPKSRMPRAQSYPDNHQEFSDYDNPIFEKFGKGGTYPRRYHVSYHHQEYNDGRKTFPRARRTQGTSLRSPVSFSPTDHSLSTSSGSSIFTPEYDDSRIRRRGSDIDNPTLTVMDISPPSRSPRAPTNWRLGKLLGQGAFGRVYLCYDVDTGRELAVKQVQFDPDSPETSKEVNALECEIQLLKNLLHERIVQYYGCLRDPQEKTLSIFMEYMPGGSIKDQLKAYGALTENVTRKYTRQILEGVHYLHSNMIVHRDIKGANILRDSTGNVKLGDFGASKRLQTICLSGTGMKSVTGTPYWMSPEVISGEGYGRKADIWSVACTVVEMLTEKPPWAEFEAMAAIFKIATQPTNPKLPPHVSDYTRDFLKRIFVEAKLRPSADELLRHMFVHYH
Sequence of UniProt P10721 (whole entry, unmodified, looked up): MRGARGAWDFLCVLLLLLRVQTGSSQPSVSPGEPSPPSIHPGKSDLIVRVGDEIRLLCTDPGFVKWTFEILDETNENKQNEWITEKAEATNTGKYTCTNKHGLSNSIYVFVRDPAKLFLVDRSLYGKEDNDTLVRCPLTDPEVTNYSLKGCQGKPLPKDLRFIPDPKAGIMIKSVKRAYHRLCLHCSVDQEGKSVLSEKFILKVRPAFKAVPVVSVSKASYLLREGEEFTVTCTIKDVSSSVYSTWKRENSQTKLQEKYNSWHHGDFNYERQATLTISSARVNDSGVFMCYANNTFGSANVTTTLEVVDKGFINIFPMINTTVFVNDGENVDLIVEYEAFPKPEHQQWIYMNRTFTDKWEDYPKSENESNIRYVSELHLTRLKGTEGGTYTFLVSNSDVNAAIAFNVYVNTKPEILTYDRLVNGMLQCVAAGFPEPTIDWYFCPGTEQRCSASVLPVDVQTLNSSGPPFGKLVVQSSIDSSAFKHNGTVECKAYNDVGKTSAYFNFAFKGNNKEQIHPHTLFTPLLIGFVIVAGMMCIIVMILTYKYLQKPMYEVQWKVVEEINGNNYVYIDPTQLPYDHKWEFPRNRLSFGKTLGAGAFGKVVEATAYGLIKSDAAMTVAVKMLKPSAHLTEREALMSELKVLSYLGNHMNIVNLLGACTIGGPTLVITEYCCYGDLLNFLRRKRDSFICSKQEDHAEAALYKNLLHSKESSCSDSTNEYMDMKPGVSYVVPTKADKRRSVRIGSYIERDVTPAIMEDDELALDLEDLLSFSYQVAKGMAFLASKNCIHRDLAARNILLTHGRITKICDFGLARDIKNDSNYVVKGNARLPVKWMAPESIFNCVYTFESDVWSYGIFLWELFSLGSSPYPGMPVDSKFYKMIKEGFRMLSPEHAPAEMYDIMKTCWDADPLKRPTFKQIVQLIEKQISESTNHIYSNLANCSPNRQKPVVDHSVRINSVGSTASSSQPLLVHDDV
Sequence of UniProt P42336 (whole entry, unmodified, looked up): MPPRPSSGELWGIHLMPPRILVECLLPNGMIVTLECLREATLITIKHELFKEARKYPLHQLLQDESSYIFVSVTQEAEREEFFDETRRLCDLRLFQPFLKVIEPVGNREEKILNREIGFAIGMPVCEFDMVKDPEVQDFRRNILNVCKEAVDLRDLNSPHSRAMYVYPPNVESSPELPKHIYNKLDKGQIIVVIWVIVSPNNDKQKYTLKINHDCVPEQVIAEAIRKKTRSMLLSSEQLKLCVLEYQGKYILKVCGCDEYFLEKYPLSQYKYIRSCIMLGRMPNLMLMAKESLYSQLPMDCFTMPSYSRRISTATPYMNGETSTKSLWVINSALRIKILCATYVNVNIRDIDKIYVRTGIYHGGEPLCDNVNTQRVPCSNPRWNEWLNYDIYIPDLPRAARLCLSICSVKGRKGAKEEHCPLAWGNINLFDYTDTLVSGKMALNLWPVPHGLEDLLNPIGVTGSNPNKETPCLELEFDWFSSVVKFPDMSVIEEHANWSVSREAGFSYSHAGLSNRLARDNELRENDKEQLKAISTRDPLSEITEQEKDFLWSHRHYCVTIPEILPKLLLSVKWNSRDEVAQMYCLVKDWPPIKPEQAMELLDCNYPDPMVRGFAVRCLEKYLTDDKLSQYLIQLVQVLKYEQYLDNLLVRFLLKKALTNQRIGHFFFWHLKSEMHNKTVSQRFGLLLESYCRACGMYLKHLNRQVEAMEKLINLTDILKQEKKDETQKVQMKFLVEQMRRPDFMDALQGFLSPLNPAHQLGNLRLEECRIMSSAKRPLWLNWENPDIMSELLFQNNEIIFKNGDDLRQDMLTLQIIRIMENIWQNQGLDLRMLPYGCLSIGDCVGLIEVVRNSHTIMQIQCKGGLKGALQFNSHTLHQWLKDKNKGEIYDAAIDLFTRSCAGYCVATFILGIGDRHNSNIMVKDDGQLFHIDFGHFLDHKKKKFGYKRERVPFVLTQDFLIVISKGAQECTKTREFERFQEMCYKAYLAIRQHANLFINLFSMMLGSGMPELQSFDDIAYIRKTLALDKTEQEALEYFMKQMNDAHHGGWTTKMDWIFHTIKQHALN
Sequence of UniProt Q9BRS2 (whole entry, looked up): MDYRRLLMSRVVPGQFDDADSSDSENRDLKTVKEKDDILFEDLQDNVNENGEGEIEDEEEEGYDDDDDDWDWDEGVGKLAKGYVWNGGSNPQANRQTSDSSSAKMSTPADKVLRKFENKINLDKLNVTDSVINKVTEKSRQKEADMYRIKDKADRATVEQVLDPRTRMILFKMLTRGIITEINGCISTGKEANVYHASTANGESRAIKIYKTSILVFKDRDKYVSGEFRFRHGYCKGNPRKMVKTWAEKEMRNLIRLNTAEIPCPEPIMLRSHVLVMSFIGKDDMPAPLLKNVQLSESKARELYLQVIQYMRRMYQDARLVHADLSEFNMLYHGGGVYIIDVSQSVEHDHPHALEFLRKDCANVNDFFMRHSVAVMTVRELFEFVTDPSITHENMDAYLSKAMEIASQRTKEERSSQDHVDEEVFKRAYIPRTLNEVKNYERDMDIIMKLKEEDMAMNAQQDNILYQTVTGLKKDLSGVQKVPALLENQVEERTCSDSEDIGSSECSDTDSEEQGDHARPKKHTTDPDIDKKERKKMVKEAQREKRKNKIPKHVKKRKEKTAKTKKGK

Series 1
SMILES: CS(=O)(=O)N1CCCC(NC(=O)[C@H](CCC2CCCCC2)NC(=O)c2ccc(CNC(=O)c3cnc4ccccn34)cc2)C1 (stereo partly drawn)
Read-out: cell-free assay
Technique: competition with immobilised ligand
Tested at: 0.1 µM
| target | remaining binding [%] |
| --- | --- |
| EPHA7 (Homo sapiens, UniProt Q15375) | 96 |
| GRK4 (Homo sapiens, UniProt P32298) | 100 |
| MET (Homo sapiens, UniProt P08581, M1250T) | 69 |
| TLK2 (Homo sapiens, UniProt Q86UE8) | 89 |
| STK39 (Homo sapiens, UniProt Q9UEW8) | 88 |
| CDK11A (Homo sapiens, UniProt Q9UQ88) | 100 |
| RIOK1 (Homo sapiens, UniProt Q9BRS2) | 73 |
| PIKFYVE (Homo sapiens, UniProt Q9Y2I7) | 100 |
| FGR (Homo sapiens, UniProt P09769) | 87 |
| MAP3K12 (Homo sapiens, UniProt Q12852) | 100 |
| IKBKE (Homo sapiens, UniProt Q14164) | 100 |
| Ribosomal protein S6 kinase alpha-3, C-terminal kinase domain (RPS6KA3, Homo sapiens, UniProt P51812) | 100 |
| RIPK1 (Homo sapiens, UniProt Q13546) | 88 |
| Tyrosine-protein kinase ABL1, non-phosphorylated (ABL1, Homo sapiens, UniProt P00519, Q252H) | 37 |
| CSNK1A1 (Homo sapiens, UniProt P48729) | 100 |
| MAP3K2 (Homo sapiens, UniProt Q9Y2U5) | 100 |
| PIK3CA (Homo sapiens, UniProt P42336, C420R) | 93 |
| CSNK1A1L (Homo sapiens, UniProt Q8N752) | 99 |
| MYLK2 (Homo sapiens, UniProt Q9H1R3) | 90 |
| NEK9 (Homo sapiens, UniProt Q8TD19) | 100 |
| STK11 (Homo sapiens, UniProt Q15831) | 51 |
| KIT (Homo sapiens, UniProt P10721, A829P) | 66 |

Series 2
Cell line: Huh-7
Tested at: 10 µM
Time: 24 h
| Structure (SMILES) | viability |
| --- | --- |
| CCCc1nn(C)c2c(=O)[nH]c(-c3cc(S(=O)(=O)N4CCN(C)CC4)ccc3OCC)nc12 | 95.4% |
| NC(CO)C(=O)NNCc1ccc(O)c(O)c1O (stereo not drawn) | 95.7% |
| COc1cc(Cc2cnc(N)nc2N)cc(OC)c1OC | 103% |
| NS(=O)(=O)c1cc2c(cc1C(F)(F)F)NCNS2(=O)=O | 98% |
| CC(=O)O[C@H]1C(=O)[C@@]2(C)[C@H]([C@H](OC(=O)c3ccccc3)[C@]3(O)C[C@H](OC(=O)[C@H](O)[C@@H](NC(=O)c4ccccc4)c4ccccc4)C(C)=C1C3(C)C)[C@]1(OC(C)=O)CO[C@@H]1C[C@@H]2O | 62.3% |
| CC(C(=O)O)c1ccc2c(c1)[nH]c1ccc(Cl)cc12 (stereo not drawn) | 94.9% |
| CCN(CC)C(C)CN1c2ccccc2Sc2ccccc21 (stereo not drawn) | 93.5% |
| Fc1ccc([C@@H]2CCNC[C@H]2COc2ccc3c(c2)OCO3)cc1 | 91.6% |
| COC(=O)Nc1nc2ccc(Sc3ccccc3)cc2[nH]1 | 88.2% |
| O=C(Nc1ccc([N+](=O)[O-])cc1Cl)c1cc(Cl)ccc1O | 54.9% |
| CCN(CC)C(=O)N1CCN(C)CC1 | 101% |
| COc1cnc(NS(=O)(=O)c2ccc(N)cc2)nc1 | 97.5% |
| C[C@@H]1O[C@@H](OC[C@H]2O[C@@H](Oc3c(-c4ccc(O)c(O)c4)oc4cc(O)cc(O)c4c3=O)[C@H](O)[C@@H](O)[C@@H]2O)[C@H](O)[C@H](O)[C@H]1O | 89.4% |
| CC1(C)S[C@@H]2[C@H](N3C(=O)[C@@H](c4ccccc4)NC3(C)C)C(=O)N2[C@H]1C(=O)O | 100% |
| Nc1ncnc2c1ncn2[C@@H]1O[C@H](COP(=O)(O)O)[C@@H](O)[C@H]1O | 99.3% |

Series 3
Target: Receptor tyrosine-protein kinase erbB-4 (ERBB4, Homo sapiens, UniProt Q15303)
Sequence of UniProt Q15303 (whole entry, looked up): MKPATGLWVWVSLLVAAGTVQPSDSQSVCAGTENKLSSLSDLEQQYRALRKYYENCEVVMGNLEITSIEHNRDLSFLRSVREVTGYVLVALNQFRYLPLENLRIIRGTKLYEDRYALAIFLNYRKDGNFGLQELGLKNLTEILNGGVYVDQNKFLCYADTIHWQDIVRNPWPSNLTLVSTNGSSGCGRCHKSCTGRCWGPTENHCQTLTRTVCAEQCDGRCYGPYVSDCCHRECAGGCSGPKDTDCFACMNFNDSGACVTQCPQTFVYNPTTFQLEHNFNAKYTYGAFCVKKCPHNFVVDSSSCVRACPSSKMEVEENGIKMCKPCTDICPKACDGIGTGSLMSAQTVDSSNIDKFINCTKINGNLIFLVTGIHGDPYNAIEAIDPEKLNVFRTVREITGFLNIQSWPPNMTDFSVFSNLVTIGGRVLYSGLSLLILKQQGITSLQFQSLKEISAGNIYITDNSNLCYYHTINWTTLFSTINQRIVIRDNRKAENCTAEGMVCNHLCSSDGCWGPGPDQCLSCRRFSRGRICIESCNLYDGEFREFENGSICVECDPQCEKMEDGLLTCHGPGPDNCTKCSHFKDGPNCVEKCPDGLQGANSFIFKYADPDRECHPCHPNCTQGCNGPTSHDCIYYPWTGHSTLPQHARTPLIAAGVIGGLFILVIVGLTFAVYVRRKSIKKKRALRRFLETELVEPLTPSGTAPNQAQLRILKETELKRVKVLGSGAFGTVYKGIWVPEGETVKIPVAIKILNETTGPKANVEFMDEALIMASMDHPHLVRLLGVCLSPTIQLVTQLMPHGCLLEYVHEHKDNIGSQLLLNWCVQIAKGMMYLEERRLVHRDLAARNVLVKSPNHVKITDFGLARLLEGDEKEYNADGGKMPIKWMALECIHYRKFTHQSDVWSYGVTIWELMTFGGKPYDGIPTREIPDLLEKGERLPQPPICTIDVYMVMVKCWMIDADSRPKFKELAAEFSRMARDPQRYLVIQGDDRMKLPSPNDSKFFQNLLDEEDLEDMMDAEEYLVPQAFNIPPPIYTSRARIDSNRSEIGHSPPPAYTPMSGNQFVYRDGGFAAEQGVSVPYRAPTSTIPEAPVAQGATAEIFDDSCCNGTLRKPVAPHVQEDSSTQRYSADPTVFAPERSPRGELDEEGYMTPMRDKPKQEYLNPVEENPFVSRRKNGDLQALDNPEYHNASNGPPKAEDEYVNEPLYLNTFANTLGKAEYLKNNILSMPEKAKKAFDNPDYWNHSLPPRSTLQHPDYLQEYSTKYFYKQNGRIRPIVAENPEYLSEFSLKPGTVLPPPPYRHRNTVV
Read-out: enzyme activity
Action: inhibitor
Tested at: 0.5 µM
Relative to: control
| Structure (SMILES) | remaining activity [%] |
| --- | --- |
| Cc1nc(Nc2ncc(C(=O)Nc3c(C)cccc3Cl)s2)cc(N2CCN(CCO)CC2)n1 | 4.03 |
| CN(C)CCCn1cc(C2=C(c3c[nH]c4ccccc34)C(=O)NC2=O)c2ccccc21 | 87.7 |
| COc1ccc(-c2cnc3c(-c4ccsc4)cnn3c2)cc1 | 94.2 |
| Cc1ccc(NC(=O)c2ccc(CN3CCN(C)CC3)cc2)cc1Nc1nccc(-c2cccnc2)n1 | 92.2 |
| CCOc1cc2ncnc(Nc3cccc(Br)c3)c2cc1OCC | 34.3 |
| CCC(=O)Nc1ccc2ncnc(Nc3cccc(Br)c3)c2c1 | 82.3 |
| CCN1/C(=C/C(C)=O)Sc2ccc(OC)cc21 | 101 |
| CC(C)[C@H](CO)Nc1nc(Nc2cccc(Cl)c2)c2ncn(C(C)C)c2n1 | 78.4 |
| Nc1[nH]nc2nnc(-c3c(-c4ccccc4)nn4ccccc34)cc12 | 91.4 |
| COc1cc2ncc(-c3ccccc3)nc2cc1OC | 65.9 |
| COc1cc2ncnc(Nc3ccc(OCc4ccccc4)cc3)c2cc1OC | 9.19 |
| O=c1cc(N2CCOCC2)oc2c1ccc1ccccc12 | 101 |
| Cn1cc(/C=C2\C(=O)Nc3ccc(S(N)(=O)=O)cc32)c2ccccc21 | 81.3 |
| CC(=O)O/N=C1/C(c2c(O)[nH]c3cc(Br)ccc23)=Nc2ccccc21 | 101 |
| Cn1cnc2cc3c(Nc4cccc(Br)c4)ncnc3cc21 | 75.5 |
| CC(C)c1nn(-c2c(Cl)cccc2Cl)c2nc(Cc3ccc(OCCO)cc3)[nH]c(=O)c12 | 101 |
| O=C1NC(=O)/C(=C/c2ccc3nccnc3c2)S1 | 99.4 |
| COc1ccc(Cl)cc1NC(=O)Nc1cc(C)nc2ccccc12 | 97.8 |
| C[S+]([O-])c1ccc(-c2nc(-c3ccncc3)c(-c3ccc(F)cc3)[nH]2)cc1 (stereo not drawn) | 66.8 |
| COc1cc2ncnc(N3CCN(C(=O)Nc4ccc(Oc5ccccc5)cc4)CC3)c2cc1OC | 101 |
| O=C(Nc1ccc(Cl)cc1)c1ccccc1NCc1ccncc1 | 71.3 |

Series 4
Target: Beta-1 adrenergic receptor (ADRB1, Homo sapiens, UniProt P08588)
Sequence of UniProt P08588 (whole entry, looked up): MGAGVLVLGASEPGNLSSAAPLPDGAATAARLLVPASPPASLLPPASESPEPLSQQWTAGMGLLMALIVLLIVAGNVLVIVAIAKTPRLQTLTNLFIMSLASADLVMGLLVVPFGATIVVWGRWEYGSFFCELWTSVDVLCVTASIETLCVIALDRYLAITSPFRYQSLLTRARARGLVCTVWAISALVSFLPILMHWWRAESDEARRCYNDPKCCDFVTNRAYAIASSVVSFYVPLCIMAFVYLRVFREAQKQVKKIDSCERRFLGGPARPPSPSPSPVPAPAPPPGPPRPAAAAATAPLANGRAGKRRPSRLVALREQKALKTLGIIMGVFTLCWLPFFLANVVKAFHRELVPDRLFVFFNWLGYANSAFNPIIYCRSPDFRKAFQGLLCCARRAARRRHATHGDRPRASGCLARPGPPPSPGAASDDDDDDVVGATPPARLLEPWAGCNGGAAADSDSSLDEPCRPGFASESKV
Action: antagonist
| Compound | IC50 |
| --- | --- |
| Cc1oc(C(O)c2cccc(O)c2)nc1C(=O)N1CCOCC1 (stereo not drawn) | ≥ 100 µM |
| COc1ccccc1N1CCN(C(=O)C2CC(=O)N(CCN3CCOCC3)C2)CC1 (stereo not drawn) | ≥ 100 µM |
| O=C1c2c(nc(COc3cccc(N4CCOCC4)c3)n2Cc2ccccc2)NCCN1CC1CC1 | ≥ 100 µM |
| CN(C)c1cc(=O)c2ccnc(Nc3cccnc3)c2o1 | ≥ 100 µM |
| CCN(Cc1cccc([S+](=O)([O-])O)c1)c1ccc(C(=C2C=CC(=[N+](CC)Cc3cccc([S+](=O)([O-])O)c3)C=C2)c2ccc(O)cc2[S+](=O)([O-])O)cc1 | ≥ 100 µM |
| O=C(Nc1cccc(Cl)c1)N1CCN(c2cc(N3CCOCC3)cnn2)CC1 | ≥ 100 µM |
| CCc1ccc([S+](=O)([O-])N2CCN(c3ccccc3OC)CC2)cc1 | ≥ 100 µM |
| COc1ccccc1-c1ncc2c(n1)OCCN(c1cccc(C(F)(F)F)c1)C2=O | ≥ 100 µM |
| COc1ccccc1N1CCN([S+](=O)([O-])c2ccc(C)cc2)CC1 | ≥ 100 µM |
| CN(Cc1ccc(F)cc1)c1ccc2ncc(Nc3cccc(O)c3)n2n1 | ≥ 100 µM |
| CC1=CC(C)(C)NC(Nc2nc(-c3ccccc3)c3ccccc3n2)=N1 | ≥ 100 µM |

Excerpt of the above (series 3):
| Structure (SMILES) | remaining activity [%] |
| --- | --- |
| COc1cc2ncnc(Nc3ccc(OCc4ccccc4)cc3)c2cc1OC | 9.19 |
| O=c1cc(N2CCOCC2)oc2c1ccc1ccccc12 | 101 |
| Cn1cc(/C=C2\C(=O)Nc3ccc(S(N)(=O)=O)cc32)c2ccccc21 | 81.3 |
| CC(=O)O/N=C1/C(c2c(O)[nH]c3cc(Br)ccc23)=Nc2ccccc21 | 101 |
| Cn1cnc2cc3c(Nc4cccc(Br)c4)ncnc3cc21 | 75.5 |
